Assay results of several laboratories.
Numbered parts are unrelated; each lists some results of a single study. Changes are numbered by the printed parent chain.

Study 1
Target: Interferon regulatory factor 3, full length, phosphomimetic (IRF3, Homo sapiens, UniProt Q14653, residues 1-427, S386D/S396D/S398D/S402D/T404D/S405D)
UniProt Q14653, sequence (whole entry, unmodified, looked up): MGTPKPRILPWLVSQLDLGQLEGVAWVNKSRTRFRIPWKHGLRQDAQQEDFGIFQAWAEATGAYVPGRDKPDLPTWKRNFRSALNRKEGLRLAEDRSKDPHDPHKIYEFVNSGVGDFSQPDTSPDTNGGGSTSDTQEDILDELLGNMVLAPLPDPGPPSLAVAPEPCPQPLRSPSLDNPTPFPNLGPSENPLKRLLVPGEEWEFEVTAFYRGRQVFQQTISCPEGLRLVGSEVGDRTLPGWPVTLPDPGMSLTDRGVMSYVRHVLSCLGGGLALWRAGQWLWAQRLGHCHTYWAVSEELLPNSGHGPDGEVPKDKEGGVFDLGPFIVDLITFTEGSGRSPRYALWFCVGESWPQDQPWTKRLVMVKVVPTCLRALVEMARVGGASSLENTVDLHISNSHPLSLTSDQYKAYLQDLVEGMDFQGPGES
Technique: protein-binding microarray
Molecule type: double-stranded DNA, one strand shown
Matrix: in vitro
Concentration: 2540 nM top
Setting: 60-bp whole probe
Together with: salmon DNA 0.4 mg/ml
Baseline: random background probes
Direction: higher = stronger binding
Constant ends, left off below: GCCTAGCAC … GTCTTGATTCGCTTGACGCTGCTG
| Oligonucleotide | fitted relative affinity [z-score] |
| --- | --- |
| TTAGGTTTCCTTATCCATTAGTGCTAG | 8.55 |
| CTAGCTTCCATTTTCTGAACGTGCTAG | 2.86 |
| TTTTTTTTTTTTTTTTGGAAGTGCTAG | 1.55 |
| ACAGCTCTGCGGTTCAGATAGTGCTAG | 0.0751 |
| CTAGGTATCGACTATCGGTTAGTGCTA | 0.556 |
| TTTGGTTTCGACTTTCGGTTAGTGCTA | 4.38 |
| GACGGTTTCAGTTCCGGGACGTGCTAG | 6.18 |
| TTGGGTATCCTTTTCCTTTAGTGCTAG | 6.47 |

Study 2
Target: Phosphate system positive regulatory protein PHO4, full length, GST-tagged (PHO4, Saccharomyces cerevisiae, UniProt P07270, residues 1-312)
Technique: competition protein-binding microarray
Molecule type: double-stranded DNA, one strand shown
Matrix: in vitro
Concentration: 2 µM
Setting: whole 60-bp probe, lowest competitor level
Together with: Cbf1 competitor, 0.05 µM
Direction: higher = stronger binding
Constant ends, left off below: … GTCTTGATTCGCTTGACGCTGCTG
Construct (chain): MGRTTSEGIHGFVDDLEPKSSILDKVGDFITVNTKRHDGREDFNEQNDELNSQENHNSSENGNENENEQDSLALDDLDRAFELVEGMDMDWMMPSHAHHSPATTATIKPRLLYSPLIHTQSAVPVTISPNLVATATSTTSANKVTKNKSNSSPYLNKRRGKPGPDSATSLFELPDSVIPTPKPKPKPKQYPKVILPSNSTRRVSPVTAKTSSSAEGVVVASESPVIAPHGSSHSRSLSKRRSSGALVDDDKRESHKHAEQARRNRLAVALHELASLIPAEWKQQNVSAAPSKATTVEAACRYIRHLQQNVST
| Oligonucleotide | fluorescence intensity [a.u.] |
| --- | --- |
| TGCGCAACAACTTGAATCGTGGGTGTATGTCTAGAA | 9390 |
| GACAAAAGAAGGTTAAACGTGGCAATGACAAGAGCC | 11000 |
| AGCACTGCCTCCTGTCACCTGTTTCGGCATGGCACA | 4970 |
| TTGTTGCAGTAATATTATGTGTCAAACCAGCCTGGC | 3210 |
| GATTGGGAAATCTCTAATGTGACAGTCCATACTTGT | 3260 |
| CTTTCCCGATCTTTTCACGTGCTTTTAGCACATTTG | 13100 |
| CCAGTTGGTTAAGGCACCGTGCTAATATCGCGGGGA | 7690 |
| AACTCTCCACCCTTGCACATGTCTTCAGATTCGTCC | 11200 |

Study 3
Target: CCNE1, cyclin fold, Cln2 fusion (human)
Technique: yeast growth competition, sequencing
Matrix: yeast
Setting: strong parent motif
Baseline: not given
Direction: higher = stronger binding
Starting sequence: viral docking peptide; KGVKRKLFAEDSS; partner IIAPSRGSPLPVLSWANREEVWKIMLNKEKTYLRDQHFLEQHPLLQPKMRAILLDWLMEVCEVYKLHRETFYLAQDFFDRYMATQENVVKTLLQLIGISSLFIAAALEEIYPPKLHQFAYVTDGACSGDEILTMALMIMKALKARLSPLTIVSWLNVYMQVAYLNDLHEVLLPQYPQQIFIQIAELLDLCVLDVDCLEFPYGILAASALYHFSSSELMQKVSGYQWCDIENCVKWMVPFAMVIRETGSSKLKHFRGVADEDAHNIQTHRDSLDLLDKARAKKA
| Change | normalised enrichment score |
| --- | --- |
| A9D | 6.67 |
| G2F | 7.2 |
| E10W | 5.29 |
| A9Q | 7.51 |

Study 4
Target: UBE2D3 UBC core domain (UniProt P61077)
Technique: yeast two-hybrid
Matrix: yeast
Setting: mostly zero background
Baseline: not given
Direction: higher = stronger interaction
B1: TRIM38 RING domain (UniProt O00635); chain STKKMMEEATCSICLSLMTNPVSINCGHSYCHLCITDFFKNPSQKQLRQETFCCPQCRAPFHMDSLRP
B2: RNF175 RING domain (UniProt Q8N4F7); chain LPTRSLSDNICAVCGQKIIVELDEEGLIENTYQLSCNHVFHEFCIRGWCIVGKKQTCPYCKEKVDLKRMIS
B3: UBE4A RING domain (UniProt Q14139); chain LQQQEEETYADACDEFLDPIMSTLMCDPVVLPSSRVTVDRSTIARHLLSDQTDPFNRSPLTMDQIRPNTELKEKIQRWLAERKQQKEQLE
B4: MSL2 RING domain (UniProt Q9HCI7); chain LLPYFRQSLSCCVCGHLLQDPIAPTNSTCQHYVCKTCKGKKMMMKPSCSWCKDYEQFEENKQ
B5: RFPL2 RING domain (UniProt O75678); chain MAALFQEASSCPVCSDYLEKPMSLECGCAVCLKCINSLQKEPHGEDLLCCCSSMVSRKNKIRR
B6: TRIM15 RING domain (UniProt Q9C019); chain SLKVVHELPACTLCAGPLEDAVTIPCGHTFCRLCLPALSQMGAQSSGKILLCPLCQEEEQAETPMA
B7: NSMCE1 RING domain (UniProt Q8WV22); chain RETYPDAVKICNICHSLLIQGQSCETCGIRMHLPCVAKYFQSNAEPRCPHCNDYWPHEIPKV
B8: PHF7 RING domain (UniProt Q9BWX1); chain IQHGHVGEESCILCCEDLSQQSVENIQSPCCSQAIYHRKCIQKYAHTSAKHFFKCPQCNNRKEFPQEML
Construct (chain): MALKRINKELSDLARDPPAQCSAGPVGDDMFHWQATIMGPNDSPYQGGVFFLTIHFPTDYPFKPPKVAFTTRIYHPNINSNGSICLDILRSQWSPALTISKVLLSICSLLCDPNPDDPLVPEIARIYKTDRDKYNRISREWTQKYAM
| Molecule | lacZ reporter activity |
| --- | --- |
| MANWVFCNRCFQPPHRTSCFSLTNCGHVYCDACLGKGKKNECLICKAPCRTVLLSK (RNF212 RING domain (UniProt Q495C1)) | 0 |
| LKQVSIRENCCSLCCDEVADTQLKPCGHSDLCMDCALQLETCPLCRKEIVSRIRQI (RSPRY1 RING domain (UniProt Q96DX4)) | 0 |
| B1 (TRIM38 RING domain) | 0 |
| FLKKLEQSFMCVCCQELVYQPVTTECFHNVCKDCLQRSFKAQVFSCPACRHDLGQNYIMI (UHRF2 RING domain (UniProt Q96PU4)) | 9300 |
| B2 (RNF175 RING domain) | 0 |
| B3 (UBE4A RING domain) | 2320 |
| B4 (MSL2 RING domain) | 0 |
| B5 (RFPL2 RING domain) | 0 |
| B6 (TRIM15 RING domain) | 0 |
| B7 (NSMCE1 RING domain) | 0 |
| B8 (PHF7 RING domain) | 0 |

Repeated from above (study 1):
| Oligonucleotide | fitted relative affinity [z-score] |
| --- | --- |
| ACAGCTCTGCGGTTCAGATAGTGCTAG | 0.0751 |
| CTAGGTATCGACTATCGGTTAGTGCTA | 0.556 |
